Measured values gathered from unrelated publications.
Each line is one published result; not all experiments were run side by side. Values joined by “and” are separate records of one study, mostly repeats; a detail may differ. ± gives the spread as reported.

CSCC[C@H](NC(=O)[C@H](CCCCN)NC(=O)[C@H](CCCNC(=N)N)NC(=O)[C@H](CO)NC(=O)[C@H](Cc1c[nH]c2ccccc12)NC(=O)[C@H](CCCNC(=N)N)NC(=O)[C@H](CC(C)C)NC(=O)[C@H](N)Cc1ccccc1)C(=O)N1CCC[C@H]1C(=O)N[C@@H](CS)C(=O)N[C@H](C(=O)N[C@@H](CO)C(N)=O)C(C)C gave a remaining activity of 48 ± 6% (12G5 competition, SUP-T1 cells; human plasma; 20 µM, 8 h, 37 °C).
The remaining compound of c1ccc([C@@H]2C[C@H]2NC2CCNCC2)cc1 is reported as 99% (aqueous buffer; 0 days, 37 °C).
For CSCC[C@H](NC(=O)[C@H](CCCNC(=N)N)NC(=O)[C@H](CCCNC(=N)N)NC(=O)[C@H](CCCCN)NC(=O)[C@H](C)NC(=O)[C@H](CCCNC(=N)N)NC(=O)CNC(=O)[C@@H](NC(=O)CCNC(=O)c1ccc2c(c1)C(=O)OC21c2ccc(O)cc2Oc2cc(O)ccc21)[C@@H](C)O)C(=O)N[C@@H](CSCB(O)O)C(=O)N[C@@H](Cc1ccc(O)cc1)C(=O)N[C@@H](CSCB(O)O)C(=O)N[C@@H](CCCNC(=N)N)C(=O)N[C@@H](CCCNC(=N)N)C(N)=O, the remaining peptide was 28% and 28.6% and 25.5% (HPLC peak area; 50% human serum; 100 µM, 24 h, pH 7.4, 37 °C; relative to: 0 h).
The remaining activity of CSCC[C@H](NC(=O)[C@H](CCCCN)NC(=O)[C@H](CCCNC(=N)N)NC(=O)[C@H](CO)NC(=O)[C@H](Cc1c[nH]c2ccccc12)NC(=O)[C@H](CCCNC(=N)N)NC(=O)[C@H](CC(C)C)NC(=O)[C@@H](CO)NC(C)=O)C(=O)N1CCC[C@H]1C(=O)N[C@@H](CS)C(=O)N[C@H](C(=O)N[C@@H](CO)C(N)=O)C(C)C is reported as 65 ± 4% (12G5 competition, SUP-T1 cells; human plasma; concentration not given, 2 h).
The remaining peptide of CC(C)C[C@@H]1NC(=O)CNC(=O)[C@H](CC(N)=O)NC(=O)[C@H](CCCNC(=N)N)NC(=O)[C@H]([C@@H](C)O)NC(=O)[C@@H]2CSSC[C@@H]3NC(=O)[C@H]([C@@H](C)O)NC(=O)CNC(=O)CNC(=O)[C@H](C(C)C)NC(=O)[C@@H]4CSSC[C@H](NC(=O)[C@H]([C@@H](C)O)NC(=O)[C@H](CSSC[C@H](NC(=O)[C@H](C(C)C)NC(=O)[C@@H]5CCCN5C1=O)C(=O)NCC(=O)N[C@@H](CCC(=O)O)C(=O)N[C@@H]([C@@H](C)O)C(=O)N4)NC(=O)CNC(=O)[C@@H]1CCCN1C(=O)[C@H]([C@@H](C)O)NC(=O)[C@H](CC(N)=O)NC3=O)C(=O)N[C@@H](CO)C(=O)N[C@@H](CCCCN)C(=O)N1CCC[C@H]1C(=O)N[C@@H](C(C)C)C(=O)N2 is reported as 87.7 ± 2.7% (HPLC; ammonium bicarbonate; 180 µM, 14 days, pH 9.0, 25 °C, deamidation stability).
With O=C/C=C/c1ccccc1 the remaining concentration was 320 ± 40 µg/mL (FeSSIF; 2 h, pH 4.92, 37 °C).
Cc1ccc2c(c1)C(=O)C1(O)CCN(c3ccccc3)C1=N2 (stereo not drawn) — result for “remaining parent compound”: 9.3% (aqueous solution; 24 h, bright light).
For CCCCN1CCC(COC(=O)c2ccc(N)c(O[11CH3])c2)CC1, “remaining parent compound” read 73.2% (rhesus monkey whole blood; 30 min).
C/C(=C\CCP(=O)(OCOC(=O)CC1CCOCC1)Oc1ccc(C(C)C)cc1)CO (stereo not drawn) has a remaining compound of 0% (50% CD1 mouse plasma; 100 µM, 2 h, pH 7.5, 37 °C).
With CC(C)C[C@@H]1NC(=O)CNC(=O)[C@H](CC(N)=O)NC(=O)[C@H](CCCNC(=N)N)NC(=O)[C@H]([C@@H](C)O)NC(=O)[C@@H]2CSSC[C@@H]3NC(=O)[C@H]([C@@H](C)O)NC(=O)CNC(=O)CNC(=O)[C@H](C(C)C)NC(=O)[C@@H]4CSSC[C@H](NC(=O)[C@H](CCCCN)NC(=O)[C@H](CSSC[C@H](NC(=O)[C@H](C(C)C)NC(=O)[C@@H]5CCCN5C1=O)C(=O)NCC(=O)N[C@@H](CCC(=O)O)C(=O)N[C@@H]([C@@H](C)O)C(=O)N4)NC(=O)CNC(=O)[C@@H]1CCCN1C(=O)[C@H]([C@@H](C)O)NC(=O)[C@H](CC(N)=O)NC3=O)C(=O)N[C@@H](CO)C(=O)N[C@@H](Cc1c[nH]c3ccccc13)C(=O)N1CCC[C@H]1C(=O)N[C@@H](C(C)C)C(=O)N2 the remaining peptide was 96.1 ± 0.4% (HPLC; ammonium bicarbonate; 180 µM, 7 days, pH 9.0, 25 °C, deamidation stability).
CC(C)[C@@H]1NC(=O)CNC(=O)[C@H](CC(N)=O)NC(=O)[C@H](CCCNC(=N)N)NC(=O)[C@H](Cc2ccc(O)cc2)NC(=O)[C@H](C(C)C)NC(=O)[C@@H](NC(=O)[C@@H](NC(=O)[C@H](CC(N)=O)NC(=O)[C@H](Cc2c[nH]c3ccccc23)NC(=O)[C@H](C)NC(=O)[C@H](Cc2ccccc2)NC(=O)CN)C(C)C)CSSC[C@@H](C(=O)N[C@@H](Cc2cnc[nH]2)C(=O)N[C@@H](CCCNC(=N)N)C(=O)N[C@@H](CCCNC(=N)N)C(=O)N[C@@H](C)C(=O)N[C@@H](CC(N)=O)C(N)=O)NC(=O)[C@H](C(C)C)NC(=O)[C@H](CCCNC(=N)N)NC1=O gave a remaining peptide of 43% and 55.7% (HPLC; mouse kidney homogenate; 2560 µM, 2.00 h, 37 °C, 50 mg/mL tissue).
For CC(C)C[C@@H]1NC(=O)CNC(=O)[C@H](CC(N)=O)NC(=O)[C@H](CCCNC(=N)N)NC(=O)[C@H]([C@@H](C)O)NC(=O)[C@@H]2CSSC[C@@H]3NC(=O)[C@H](CCCCN)NC(=O)CNC(=O)CNC(=O)[C@H](C(C)C)NC(=O)[C@@H]4CSSC[C@H](NC(=O)[C@H]([C@@H](C)O)NC(=O)[C@H](CSSC[C@H](NC(=O)[C@H](C(C)C)NC(=O)[C@@H]5CCCN5C1=O)C(=O)NCC(=O)N[C@@H](CCC(=O)O)C(=O)N[C@@H]([C@@H](C)O)C(=O)N4)NC(=O)CNC(=O)[C@@H]1CCCN1C(=O)[C@H]([C@@H](C)O)NC(=O)[C@H](CC(N)=O)NC3=O)C(=O)N[C@@H](CO)C(=O)N[C@@H](Cc1c[nH]c3ccccc13)C(=O)N1CCC[C@H]1C(=O)N[C@@H](C(C)C)C(=O)N2, the remaining peptide was 99.3 ± 1% (HPLC; water; 180 µM, 14 days, 37 °C, deamidation stability).
The remaining compound of CC[C@@H](C)[C@@H](NC(=O)[C@@H](Cc1ccc(O)cc1)NC(=O)[C@H]1CCCN1C(=O)[C@@H](CCCNC(=N)N)NC(=O)[C@H](N)Cc1c[nH]cn1)C(=O)N[C@H](C)C(=O)N[C@H](Cc1c[nH]cn1)C(=O)N[C@H](CCCNC(=N)N)C(=O)N[C@H](CCCCNC(=O)c1cccc(S(=O)(=O)F)c1)C(=O)N[C@H](Cc1ccc(O)cc1)C(=O)N[C@H](CO)C(=O)N[C@H](Cc1ccccc1)C(N)=O is reported as 110% and 111% (10% human serum; 48 h).
The remaining peptide of CC(C)C[C@@H]1NC(=O)CNC(=O)[C@H](CCCCN)NC(=O)[C@H](CCCNC(=N)N)NC(=O)[C@H]([C@@H](C)O)NC(=O)[C@@H]2CSSC[C@@H]3NC(=O)[C@H]([C@@H](C)O)NC(=O)CNC(=O)CNC(=O)[C@H](C(C)C)NC(=O)[C@@H]4CSSC[C@H](NC(=O)[C@H](CCCCN)NC(=O)[C@H](CSSC[C@H](NC(=O)[C@H](C(C)C)NC(=O)[C@@H]5CCCN5C1=O)C(=O)NCC(=O)N[C@@H](CCC(=O)O)C(=O)N[C@@H]([C@@H](C)O)C(=O)N4)NC(=O)CNC(=O)[C@@H]1CCCN1C(=O)[C@H]([C@@H](C)O)NC(=O)[C@H](CC(N)=O)NC3=O)C(=O)N[C@@H](CO)C(=O)N[C@@H](Cc1c[nH]c3ccccc13)C(=O)N1CCC[C@H]1C(=O)N[C@@H](C(C)C)C(=O)N2 is reported as 100% (HPLC; ammonium bicarbonate 0.1 M; 180 µM, 14 days, pH 9.0, 37 °C, deamidation stability).
CC[C@@H](C)[C@@H](NC(=O)[C@@H](Cc1ccc(O)cc1)NC(=O)[C@H]1CCCN1C(=O)[C@@H](CCCNC(=N)N)NC(=O)[C@H](N)Cc1c[nH]cn1)C(=O)N[C@H](C)C(=O)N[C@H](Cc1c[nH]cn1)C(=O)N[C@H](CCCNC(=N)N)C(=O)N[C@@H](C(=O)N[C@H](Cc1ccc(O)cc1)C(=O)N[C@H](CO)C(=O)N[C@H](Cc1ccccc1)C(N)=O)C(C)C gave a remaining compound of 94.7% and 95.3% and 94.2% (10% human serum; 36 h).

Excerpt of the above:
CC(C)[C@@H]1NC(=O)CNC(=O)[C@H](CC(N)=O)NC(=O)[C@H](CCCNC(=N)N)NC(=O)[C@H](Cc2ccc(O)cc2)NC(=O)[C@H](C(C)C)NC(=O)[C@@H](NC(=O)[C@@H](NC(=O)[C@H](CC(N)=O)NC(=O)[C@H](Cc2c[nH]c3ccccc23)NC(=O)[C@H](C)NC(=O)[C@H](Cc2ccccc2)NC(=O)CN)C(C)C)CSSC[C@@H](C(=O)N[C@@H](Cc2cnc[nH]2)C(=O)N[C@@H](CCCNC(=N)N)C(=O)N[C@@H](CCCNC(=N)N)C(=O)N[C@@H](C)C(=O)N[C@@H](CC(N)=O)C(N)=O)NC(=O)[C@H](C(C)C)NC(=O)[C@H](CCCNC(=N)N)NC1=O gave a remaining peptide of 43% and 55.7% (HPLC; mouse kidney homogenate; 2560 µM, 2.00 h, 37 °C, 50 mg/mL tissue).
